Published values gathered from unrelated publications.
Lines come from different studies, so protocols differ. Numbers after ± are the reported error.
Histone acetyltransferase RTT109 with Vps75: Histone acetyltransferase RTT109, with Vps75 (Saccharomyces cerevisiae, UniProt Q07794)
Chain of UniProt Q07794 (whole entry, looked up): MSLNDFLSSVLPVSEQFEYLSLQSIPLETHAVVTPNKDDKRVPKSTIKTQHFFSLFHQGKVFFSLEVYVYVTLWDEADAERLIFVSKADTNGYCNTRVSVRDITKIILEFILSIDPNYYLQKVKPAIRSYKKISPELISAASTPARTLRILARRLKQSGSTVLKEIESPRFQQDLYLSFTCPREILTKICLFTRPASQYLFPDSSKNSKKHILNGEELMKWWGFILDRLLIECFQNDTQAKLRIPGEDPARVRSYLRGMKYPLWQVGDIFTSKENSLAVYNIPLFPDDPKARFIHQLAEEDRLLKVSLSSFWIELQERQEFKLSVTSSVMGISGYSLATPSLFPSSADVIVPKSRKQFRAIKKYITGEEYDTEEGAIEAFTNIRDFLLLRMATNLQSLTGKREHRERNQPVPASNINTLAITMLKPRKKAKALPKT
ALDH2: Aldehyde dehydrogenase, mitochondrial (ALDH2, Homo sapiens, UniProt P05091)
Chain of UniProt P05091 (whole entry, looked up): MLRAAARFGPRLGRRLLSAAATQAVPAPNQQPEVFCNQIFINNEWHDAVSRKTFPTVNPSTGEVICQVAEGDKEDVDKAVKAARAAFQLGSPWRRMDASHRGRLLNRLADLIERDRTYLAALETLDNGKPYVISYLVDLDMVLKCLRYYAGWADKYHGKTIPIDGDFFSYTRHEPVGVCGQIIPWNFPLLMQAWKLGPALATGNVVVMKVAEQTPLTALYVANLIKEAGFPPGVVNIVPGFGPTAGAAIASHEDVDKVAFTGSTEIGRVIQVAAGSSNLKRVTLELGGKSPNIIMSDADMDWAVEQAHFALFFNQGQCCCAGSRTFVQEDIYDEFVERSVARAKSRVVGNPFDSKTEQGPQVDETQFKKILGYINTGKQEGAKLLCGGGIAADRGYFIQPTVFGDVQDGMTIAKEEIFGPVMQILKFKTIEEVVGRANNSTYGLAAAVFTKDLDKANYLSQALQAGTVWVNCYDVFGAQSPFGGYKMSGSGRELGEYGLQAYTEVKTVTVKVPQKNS
Chain of UniProt P61823 (whole entry, looked up): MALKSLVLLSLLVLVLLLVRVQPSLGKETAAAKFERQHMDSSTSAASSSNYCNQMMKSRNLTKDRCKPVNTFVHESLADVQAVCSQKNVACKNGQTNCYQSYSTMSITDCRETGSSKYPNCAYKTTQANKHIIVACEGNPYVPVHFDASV
Chain of UniProt P31641 (whole entry, unmodified, looked up): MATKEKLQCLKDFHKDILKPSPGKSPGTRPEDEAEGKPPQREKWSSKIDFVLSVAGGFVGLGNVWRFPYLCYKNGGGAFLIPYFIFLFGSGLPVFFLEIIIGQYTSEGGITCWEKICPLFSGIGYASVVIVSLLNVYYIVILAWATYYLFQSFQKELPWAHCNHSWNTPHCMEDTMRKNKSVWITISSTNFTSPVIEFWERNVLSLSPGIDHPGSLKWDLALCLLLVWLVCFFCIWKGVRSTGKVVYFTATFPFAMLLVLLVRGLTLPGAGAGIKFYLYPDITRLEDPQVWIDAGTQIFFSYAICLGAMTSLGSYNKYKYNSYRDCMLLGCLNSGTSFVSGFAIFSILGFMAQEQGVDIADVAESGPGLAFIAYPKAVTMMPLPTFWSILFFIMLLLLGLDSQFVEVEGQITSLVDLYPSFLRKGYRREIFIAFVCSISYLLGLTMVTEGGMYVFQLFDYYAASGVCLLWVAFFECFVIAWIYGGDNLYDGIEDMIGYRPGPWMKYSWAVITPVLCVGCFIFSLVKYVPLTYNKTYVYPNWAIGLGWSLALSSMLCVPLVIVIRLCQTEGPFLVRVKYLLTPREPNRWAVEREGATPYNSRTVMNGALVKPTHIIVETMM
Chain of UniProt Q16774 (whole entry, looked up): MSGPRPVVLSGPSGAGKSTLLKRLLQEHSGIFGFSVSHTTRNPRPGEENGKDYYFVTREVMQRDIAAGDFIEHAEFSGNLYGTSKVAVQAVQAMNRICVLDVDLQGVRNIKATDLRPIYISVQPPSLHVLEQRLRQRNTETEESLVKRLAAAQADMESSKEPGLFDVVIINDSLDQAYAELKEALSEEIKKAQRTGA
Chain of UniProt P52735 (whole entry, looked up): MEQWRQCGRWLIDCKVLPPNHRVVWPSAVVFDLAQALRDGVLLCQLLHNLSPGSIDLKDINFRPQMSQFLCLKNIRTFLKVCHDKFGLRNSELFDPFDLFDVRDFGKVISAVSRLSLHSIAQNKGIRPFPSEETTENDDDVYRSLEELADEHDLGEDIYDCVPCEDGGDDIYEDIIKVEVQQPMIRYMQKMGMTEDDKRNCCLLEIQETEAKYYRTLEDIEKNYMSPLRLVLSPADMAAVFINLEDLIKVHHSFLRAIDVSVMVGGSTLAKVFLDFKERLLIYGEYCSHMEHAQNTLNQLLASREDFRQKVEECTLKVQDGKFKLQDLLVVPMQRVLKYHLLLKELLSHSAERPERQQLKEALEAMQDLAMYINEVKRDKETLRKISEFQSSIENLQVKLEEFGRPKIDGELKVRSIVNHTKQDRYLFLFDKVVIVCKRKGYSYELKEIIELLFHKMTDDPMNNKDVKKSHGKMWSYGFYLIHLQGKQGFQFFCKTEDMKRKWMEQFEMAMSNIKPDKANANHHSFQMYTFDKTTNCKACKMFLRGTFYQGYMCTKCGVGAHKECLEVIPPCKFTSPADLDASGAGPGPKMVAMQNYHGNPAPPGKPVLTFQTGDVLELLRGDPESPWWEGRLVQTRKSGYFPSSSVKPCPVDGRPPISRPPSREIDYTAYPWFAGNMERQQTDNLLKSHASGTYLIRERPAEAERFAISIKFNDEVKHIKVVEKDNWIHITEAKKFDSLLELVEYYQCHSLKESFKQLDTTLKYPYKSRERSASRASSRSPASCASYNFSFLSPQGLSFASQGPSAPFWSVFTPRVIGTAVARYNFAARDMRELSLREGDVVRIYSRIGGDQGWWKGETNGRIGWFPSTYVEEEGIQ
Chain of UniProt Q9UNU6 (whole entry, looked up): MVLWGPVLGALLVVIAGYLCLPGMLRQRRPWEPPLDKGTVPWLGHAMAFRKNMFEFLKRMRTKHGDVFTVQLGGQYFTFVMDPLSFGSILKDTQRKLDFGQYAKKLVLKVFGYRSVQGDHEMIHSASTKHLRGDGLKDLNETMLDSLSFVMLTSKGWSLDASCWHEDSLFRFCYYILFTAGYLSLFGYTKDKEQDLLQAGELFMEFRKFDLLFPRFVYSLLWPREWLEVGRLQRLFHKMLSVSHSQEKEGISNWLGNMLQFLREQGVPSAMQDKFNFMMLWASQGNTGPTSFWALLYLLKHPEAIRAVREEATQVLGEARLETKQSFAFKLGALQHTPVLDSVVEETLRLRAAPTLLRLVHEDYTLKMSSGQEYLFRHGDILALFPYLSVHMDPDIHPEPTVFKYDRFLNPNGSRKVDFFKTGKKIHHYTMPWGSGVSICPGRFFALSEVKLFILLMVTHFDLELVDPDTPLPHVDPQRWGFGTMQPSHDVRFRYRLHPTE
Chain of UniProt P32120 (whole entry, unmodified, looked up): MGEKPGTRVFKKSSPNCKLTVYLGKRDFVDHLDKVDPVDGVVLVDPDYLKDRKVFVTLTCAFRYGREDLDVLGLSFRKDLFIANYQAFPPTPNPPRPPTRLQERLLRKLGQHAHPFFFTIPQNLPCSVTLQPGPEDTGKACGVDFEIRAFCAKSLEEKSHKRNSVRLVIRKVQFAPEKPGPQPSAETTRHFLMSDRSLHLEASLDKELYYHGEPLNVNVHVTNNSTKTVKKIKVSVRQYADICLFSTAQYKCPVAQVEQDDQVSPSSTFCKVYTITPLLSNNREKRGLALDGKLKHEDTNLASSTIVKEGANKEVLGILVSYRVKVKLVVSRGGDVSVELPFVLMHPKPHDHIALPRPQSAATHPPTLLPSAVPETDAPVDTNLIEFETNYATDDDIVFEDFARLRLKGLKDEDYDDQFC
Chain of UniProt A0A0H2URD6 (whole entry, looked up): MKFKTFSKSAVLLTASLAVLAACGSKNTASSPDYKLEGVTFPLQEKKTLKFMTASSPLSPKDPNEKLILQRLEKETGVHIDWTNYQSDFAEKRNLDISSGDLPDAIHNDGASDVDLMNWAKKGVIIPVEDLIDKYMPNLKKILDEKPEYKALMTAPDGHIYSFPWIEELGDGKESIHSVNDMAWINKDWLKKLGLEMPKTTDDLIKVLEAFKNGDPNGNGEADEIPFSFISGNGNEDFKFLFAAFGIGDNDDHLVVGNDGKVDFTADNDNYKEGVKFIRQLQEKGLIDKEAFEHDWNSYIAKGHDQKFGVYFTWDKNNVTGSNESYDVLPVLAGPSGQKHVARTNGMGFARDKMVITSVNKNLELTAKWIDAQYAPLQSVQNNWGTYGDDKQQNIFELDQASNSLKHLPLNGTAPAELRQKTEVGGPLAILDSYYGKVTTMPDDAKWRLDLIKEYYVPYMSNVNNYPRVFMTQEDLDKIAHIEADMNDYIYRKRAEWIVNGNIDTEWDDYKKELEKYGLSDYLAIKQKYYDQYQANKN

Compound	target	test	test system	setting	measurement	value
CC[C@H](C)[C@H](NC(=O)[C@H](CC(C)C)NC(=O)[C@H](Cc1ccc(OP(=O)(O)O)cc1)NC(=O)[C@H](CCC(=O)O)NC(=O)[C@H](CC(=O)O)NC(=O)[C@H](C)NC(=O)[C@H](CC(=O)O)NC(=O)[C@@H](NC(=O)[C@@H](NC(=O)[C@H](CC(=O)O)NC(=O)[C@H](CC(=O)O)NC(=O)[C@H](CCSC)NC(=O)c1ccc2c(c1)C(=O)OC21c2ccc(N(C)C)cc2Oc2cc(N(C)C)ccc21)C(C)C)C(C)C)C(=O)N1CCC[C@H]1C(=O)N[C@@H](CCC(N)=O)C(=O)N[C@@H](CCC(N)=O)C(=O)NCC(=O)N[C@@H](Cc1ccccc1)C(=O)N[C@@H](CC(=O)O)C(=O)O	Guanine nucleotide exchange factor VAV2, SH2 domain (VAV2, Homo sapiens, UniProt P52735)	binding			Kd	0.085 µM
Fc1ccc(-c2nsc(Nc3ccccc3)n2)cc1	Histone acetyltransferase RTT109 with Vps75	enzyme activity, inhibitor, HTS, CPM-based, dose response			IC50	> 125 µM
OC[C@H]1O[C@@](CO)(OC[C@@]2(OC[C@@]3(O[C@H]4O[C@H](CO)[C@@H](O)[C@H](O)[C@H]4O)O[C@H](CO)[C@@H](O)[C@@H]3O)O[C@H](CO)[C@@H](O)[C@@H]2O)[C@@H](O)[C@@H]1O	Fructooligosaccharide ABC transporter substrate-binding protein FusA (fusA, Streptococcus pneumoniae serotype 4, UniProt A0A0H2URD6)	binder			Kd	0.3 µM
Nc1ccn([C@@H]2O[C@H](COP(=O)(O)OP(=O)(O)O)[C@@H](O)[C@H]2O)c(=O)n1	Ribonuclease pancreatic (RNASE1, Bos taurus, UniProt P61823)	surface sampling native MS			Kd	3.8 ± 0.2 µM
Cc1[nH]c2ccccc2c1CCNCc1ccc(/C=C/C(=O)NO)cc1	ALDH2	inhibitor, competition pulldown	SW620 and MV4-11 lysate	1 h	Kd	> 30.2 µM
Cc1ccnc([18F])c1-c1cccc(N2C[C@H](N3CCN(C(=O)c4nccs4)CC3)CC2=O)c1	Monoglyceride lipase (Macaca mulatta, UniProt H9ESL3)	PET Scatchard analysis	rhesus monkey, occipital cortex		Kd	0.00329 µM
CN1CCc2c(c3ccccc3n2Cc2ccc(C(=O)NO)cc2)C1	ALDH2	inhibitor, competition pulldown	SW620 and MV4-11 lysate	1 h	Kd	> 30.2 µM
Nc1ncnc2c1ncn2[C@@H]1O[C@H](CO[P@](=O)(O)O[P@](=O)(O)O[P@@](=O)(O)S)[C@@H](O)[C@H]1O	GUK1 (Homo sapiens, UniProt Q16774)	binding, ITC		added: ADP	Kd	42 ± 2 µM
CCCN1CCN(c2ccc(-c3cncc(Cl)c3N3CCC4(CCNC4=O)CC3)cc2)CC1	MED13L human	SILAC competition	LS174T-L5 lysate		Kd	0.041 µM
Nc1ncnc2c1ncn2[C@@H]1O[C@H](COP(=O)(O)OP(=O)(O)O)[C@@H](O)[C@H]1O	Creatine kinase U-type, mitochondrial (CKMT1A, Homo sapiens, UniProt P12532, H99K)	microscale thermophoresis		pH 7.0, H61K mutant, no substrate	Kd	7 ± 2 µM
O=C(CCCCCCNC(=O)c1cnc(N(c2ccccc2)c2ccccc2Cl)nc1)NO	ALDH2	inhibitor, competition pulldown	SW620 and MV4-11 lysate	1 h	Kd	1.53 µM
c1ccc(-c2ccc(OCCn3ccnc3)cc2)cc1	7-alpha-hydroxycholest-4-en-3-one 12-alpha-hydroxylase (Homo sapiens, UniProt Q9UNU6)	binding		20 min, pH 7.4	Kd	19.9 µM
O=C(O)CC(O)(CC(=O)O)C(=O)O	uncharacterized protein (Pelagibacter ubique, UniProt Q4FLC8)	binding, direct isothermal titration calorimetry	Candidatus Pelagibacter ubique	added: MgSO4 53 mM	Kd	< 0.005 µM
Cc1cccc(Nc2nc(-c3ccccc3)no2)c1	Histone acetyltransferase RTT109 with Vps75	enzyme activity, inhibitor, HTS, CPM-based, dose response			IC50	> 125 µM
NCCS(=O)(=O)O	Sodium- and chloride-dependent taurine transporter (SLC6A6, Homo sapiens, UniProt P31641, E406A)	microscale thermophoresis		E406A mutant	Kd	25.8 ± 6.33 µM
CCCC(CCC)C(=O)O	ALDH2	inhibitor, competition pulldown	SW620 and MV4-11 lysate	1 h	Kd	> 3020 µM
O=P(O)(O)O[C@H]1[C@H](OP(=O)(O)O)[C@@H](OP(=O)(O)O)[C@H](OP(=O)(O)O)[C@@H](OP(=O)(O)O)[C@H]1OP(=O)(O)O	Beta-arrestin-2 (ARRB2, Bos taurus, UniProt P32120, K108Q/K11A/K12A/K161Q/K295Q/R8Q)	binding, microscale thermophoresis			Kd	0.02 µM
